Results pooled from the literature.
Compare with care: the assays were run in different laboratories.
HDAC8: Histone deacetylase 8 (HDAC8, Homo sapiens, UniProt Q9BY41)
Sequence of UniProt Q9BY41 (whole entry, looked up): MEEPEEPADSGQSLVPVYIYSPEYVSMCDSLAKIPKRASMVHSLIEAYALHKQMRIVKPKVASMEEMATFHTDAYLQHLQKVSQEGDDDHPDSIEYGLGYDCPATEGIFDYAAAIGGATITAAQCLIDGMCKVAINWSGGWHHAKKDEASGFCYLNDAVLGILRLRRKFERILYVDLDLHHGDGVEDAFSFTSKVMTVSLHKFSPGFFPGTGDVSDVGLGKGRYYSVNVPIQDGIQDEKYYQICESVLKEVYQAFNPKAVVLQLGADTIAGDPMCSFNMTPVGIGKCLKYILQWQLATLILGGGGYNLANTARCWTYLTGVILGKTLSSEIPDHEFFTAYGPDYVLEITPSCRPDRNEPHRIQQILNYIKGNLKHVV
DRD3: D(3) dopamine receptor (DRD3, Homo sapiens, UniProt P35462)
Sequence of UniProt P35462 (whole entry, looked up): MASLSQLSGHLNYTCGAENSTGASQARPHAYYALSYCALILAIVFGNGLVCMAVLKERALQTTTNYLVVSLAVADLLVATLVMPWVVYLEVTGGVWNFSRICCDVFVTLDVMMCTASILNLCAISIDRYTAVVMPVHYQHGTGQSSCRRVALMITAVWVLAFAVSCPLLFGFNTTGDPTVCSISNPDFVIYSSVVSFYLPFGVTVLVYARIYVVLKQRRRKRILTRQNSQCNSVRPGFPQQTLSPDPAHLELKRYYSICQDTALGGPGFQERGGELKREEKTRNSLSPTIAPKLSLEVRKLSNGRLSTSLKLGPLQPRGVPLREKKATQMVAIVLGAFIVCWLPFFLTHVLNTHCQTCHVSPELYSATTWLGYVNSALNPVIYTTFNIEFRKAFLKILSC
ADRA1A: Alpha-1A adrenergic receptor (ADRA1A, Homo sapiens, UniProt P35348)
Sequence of UniProt P35348 (whole entry, looked up): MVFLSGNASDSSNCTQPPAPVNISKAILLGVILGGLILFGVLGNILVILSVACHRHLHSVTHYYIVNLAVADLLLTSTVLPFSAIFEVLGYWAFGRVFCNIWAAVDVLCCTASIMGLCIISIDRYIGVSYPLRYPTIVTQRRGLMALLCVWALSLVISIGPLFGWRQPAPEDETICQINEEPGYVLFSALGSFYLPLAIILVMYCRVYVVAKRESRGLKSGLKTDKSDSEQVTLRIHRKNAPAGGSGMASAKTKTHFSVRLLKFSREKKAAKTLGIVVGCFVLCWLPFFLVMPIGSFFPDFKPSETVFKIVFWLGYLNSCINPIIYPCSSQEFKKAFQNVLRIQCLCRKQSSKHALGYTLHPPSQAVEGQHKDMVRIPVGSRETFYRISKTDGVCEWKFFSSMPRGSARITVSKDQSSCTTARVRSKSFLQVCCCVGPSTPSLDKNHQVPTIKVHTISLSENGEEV
Sequence of UniProt P0DMS8 (whole entry, unmodified, looked up): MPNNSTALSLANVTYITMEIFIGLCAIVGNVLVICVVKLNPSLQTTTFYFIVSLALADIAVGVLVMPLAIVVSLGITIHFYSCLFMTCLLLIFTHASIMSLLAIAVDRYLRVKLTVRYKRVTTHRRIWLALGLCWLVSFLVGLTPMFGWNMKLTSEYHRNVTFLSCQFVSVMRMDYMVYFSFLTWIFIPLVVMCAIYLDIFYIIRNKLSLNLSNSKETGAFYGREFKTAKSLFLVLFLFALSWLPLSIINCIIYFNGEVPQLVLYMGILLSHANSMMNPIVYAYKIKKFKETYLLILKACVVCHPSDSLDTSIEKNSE
Sequence of UniProt Q9UKI8 (whole entry, looked up): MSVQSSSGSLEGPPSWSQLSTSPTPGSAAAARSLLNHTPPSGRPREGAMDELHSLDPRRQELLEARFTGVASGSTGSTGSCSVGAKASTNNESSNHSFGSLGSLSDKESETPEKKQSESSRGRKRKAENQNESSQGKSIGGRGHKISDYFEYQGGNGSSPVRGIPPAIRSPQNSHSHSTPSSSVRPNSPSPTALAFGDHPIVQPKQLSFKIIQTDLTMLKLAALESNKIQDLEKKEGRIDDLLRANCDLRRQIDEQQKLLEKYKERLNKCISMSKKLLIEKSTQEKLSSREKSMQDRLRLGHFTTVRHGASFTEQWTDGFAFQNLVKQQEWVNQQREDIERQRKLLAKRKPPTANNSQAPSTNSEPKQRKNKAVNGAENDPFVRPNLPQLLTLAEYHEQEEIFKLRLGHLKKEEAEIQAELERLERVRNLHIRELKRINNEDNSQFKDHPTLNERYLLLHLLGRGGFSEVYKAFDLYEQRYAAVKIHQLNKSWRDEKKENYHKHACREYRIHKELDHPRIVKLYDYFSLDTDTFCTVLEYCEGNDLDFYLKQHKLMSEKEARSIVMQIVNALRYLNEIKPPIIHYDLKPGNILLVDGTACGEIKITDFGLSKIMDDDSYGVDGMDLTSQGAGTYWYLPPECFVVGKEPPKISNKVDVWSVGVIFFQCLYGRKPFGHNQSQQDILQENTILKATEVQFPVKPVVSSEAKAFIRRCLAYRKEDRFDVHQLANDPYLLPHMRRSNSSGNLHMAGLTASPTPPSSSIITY
Sequence of UniProt Q9HBH9 (whole entry, looked up): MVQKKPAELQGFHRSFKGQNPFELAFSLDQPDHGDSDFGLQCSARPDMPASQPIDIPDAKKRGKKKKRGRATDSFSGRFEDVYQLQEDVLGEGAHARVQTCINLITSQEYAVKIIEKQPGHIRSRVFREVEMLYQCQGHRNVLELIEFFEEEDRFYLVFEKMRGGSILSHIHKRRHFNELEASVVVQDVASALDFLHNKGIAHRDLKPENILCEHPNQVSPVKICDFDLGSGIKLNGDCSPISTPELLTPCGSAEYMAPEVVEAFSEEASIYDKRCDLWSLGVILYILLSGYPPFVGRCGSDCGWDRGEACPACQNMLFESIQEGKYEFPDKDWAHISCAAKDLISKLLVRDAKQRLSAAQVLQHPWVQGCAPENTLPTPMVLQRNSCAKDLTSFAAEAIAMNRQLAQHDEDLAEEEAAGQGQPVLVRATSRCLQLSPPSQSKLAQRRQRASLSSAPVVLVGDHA
Sequence of UniProt Q9UBN7 (whole entry, looked up): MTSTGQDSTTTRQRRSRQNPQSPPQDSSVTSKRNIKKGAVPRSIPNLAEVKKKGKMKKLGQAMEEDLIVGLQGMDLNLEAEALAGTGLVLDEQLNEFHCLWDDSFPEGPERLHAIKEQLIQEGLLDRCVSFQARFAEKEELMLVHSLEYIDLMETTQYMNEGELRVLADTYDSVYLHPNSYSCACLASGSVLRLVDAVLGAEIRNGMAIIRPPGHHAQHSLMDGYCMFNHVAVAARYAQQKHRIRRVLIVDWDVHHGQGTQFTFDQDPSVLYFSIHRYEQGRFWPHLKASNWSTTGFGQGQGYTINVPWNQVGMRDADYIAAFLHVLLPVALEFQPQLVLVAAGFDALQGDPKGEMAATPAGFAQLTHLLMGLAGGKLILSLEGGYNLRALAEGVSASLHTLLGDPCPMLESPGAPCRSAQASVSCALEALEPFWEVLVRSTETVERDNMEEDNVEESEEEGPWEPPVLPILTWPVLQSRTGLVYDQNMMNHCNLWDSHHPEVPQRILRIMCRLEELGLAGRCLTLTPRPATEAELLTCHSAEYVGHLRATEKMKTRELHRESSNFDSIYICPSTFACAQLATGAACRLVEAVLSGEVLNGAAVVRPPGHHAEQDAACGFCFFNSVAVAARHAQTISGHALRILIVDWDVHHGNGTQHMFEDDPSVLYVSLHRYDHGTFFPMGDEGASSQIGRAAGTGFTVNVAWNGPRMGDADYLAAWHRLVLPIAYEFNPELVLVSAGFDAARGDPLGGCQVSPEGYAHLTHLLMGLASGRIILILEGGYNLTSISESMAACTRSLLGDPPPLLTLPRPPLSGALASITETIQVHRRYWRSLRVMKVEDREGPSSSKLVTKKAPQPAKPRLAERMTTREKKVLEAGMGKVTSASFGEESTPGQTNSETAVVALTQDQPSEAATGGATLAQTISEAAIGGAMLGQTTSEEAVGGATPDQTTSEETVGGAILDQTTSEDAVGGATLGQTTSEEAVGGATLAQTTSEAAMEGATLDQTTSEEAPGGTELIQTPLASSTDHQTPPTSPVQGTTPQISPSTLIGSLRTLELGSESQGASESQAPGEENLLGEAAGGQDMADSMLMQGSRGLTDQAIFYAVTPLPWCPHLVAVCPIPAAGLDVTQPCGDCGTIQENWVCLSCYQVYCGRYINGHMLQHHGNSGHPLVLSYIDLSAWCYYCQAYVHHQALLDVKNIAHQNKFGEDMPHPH
Sequence of UniProt Q9UQM7 (whole entry, looked up): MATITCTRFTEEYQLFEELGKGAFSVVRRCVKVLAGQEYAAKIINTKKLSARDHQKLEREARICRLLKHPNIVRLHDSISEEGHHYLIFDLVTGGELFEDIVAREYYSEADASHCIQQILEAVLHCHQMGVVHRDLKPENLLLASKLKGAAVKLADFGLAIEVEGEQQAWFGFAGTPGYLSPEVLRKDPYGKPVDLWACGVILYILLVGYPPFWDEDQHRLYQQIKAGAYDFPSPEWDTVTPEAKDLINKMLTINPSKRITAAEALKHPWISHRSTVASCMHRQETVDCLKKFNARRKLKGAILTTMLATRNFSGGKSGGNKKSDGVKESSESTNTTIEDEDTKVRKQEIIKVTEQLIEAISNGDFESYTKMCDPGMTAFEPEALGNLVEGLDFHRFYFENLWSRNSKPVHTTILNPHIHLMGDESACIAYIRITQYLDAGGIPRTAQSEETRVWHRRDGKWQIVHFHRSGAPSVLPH
Sequence of UniProt P18089 (whole entry, looked up): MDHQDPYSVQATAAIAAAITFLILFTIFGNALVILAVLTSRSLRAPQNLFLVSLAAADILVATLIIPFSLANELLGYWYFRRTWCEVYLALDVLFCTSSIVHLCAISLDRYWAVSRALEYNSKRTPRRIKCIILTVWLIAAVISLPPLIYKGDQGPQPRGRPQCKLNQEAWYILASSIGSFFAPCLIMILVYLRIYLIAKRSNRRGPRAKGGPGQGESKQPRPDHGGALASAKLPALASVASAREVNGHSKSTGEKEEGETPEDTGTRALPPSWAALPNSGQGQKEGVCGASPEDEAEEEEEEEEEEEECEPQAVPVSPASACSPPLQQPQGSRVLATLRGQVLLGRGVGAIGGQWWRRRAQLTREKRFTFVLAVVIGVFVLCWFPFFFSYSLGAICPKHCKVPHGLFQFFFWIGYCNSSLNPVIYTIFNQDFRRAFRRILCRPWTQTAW

Compound = O=C1CC[C@H](N2Cc3cc(N4CCN(CC5CCN(c6ccc([C@@H]7c8ccc(O)cc8CC[C@@H]7c7ccccc7)cc6)CC5)CC4)ccc3C2=O)C(=O)N1; test system = male Sprague-Dawley rat, plasma; setting = oral, 20 mg/kg, fed; measurement = half-life; result = 4.62 h
Compound = C=CC(=O)N1CCC(COCC(=O)N2CCN(c3nc(-c4cnc(N)nc4C(F)F)nc(N4CCOC[C@@H]4C)n3)CC2)CC1; target or system = MAST1 (Homo sapiens, UniProt Q9Y2H9); assay = binding, competition with immobilised ligand; setting = 1 µM; measurement = remaining binding; result = 97%
Compound = CC(C)c1cccc(OS(=O)(=O)Oc2cc(F)cc(C(=O)NO)c2)c1; target or system = HDAC8; assay = enzyme activity, inhibitor, fluorescence; measurement = IC50; result = 3540 nM
Compound = Cc1cc(Oc2ncccc2CN2CCN(c3cc(Cl)cc(Cl)c3)CC2)ccc1-c1c(C)c(=O)[nH]c(=O)n1C; target or system = ADRA2B (Homo sapiens, UniProt P18089); assay = ligand displacement, radioligand; measurement = Ki; result = 804 nM
Compound = CC(=O)c1ccc(NS(=O)(=O)c2c(C)[nH]c(C)c2C(=O)N2CCC(F)(F)C2)cc1Cl; target or system = DRD3; assay = G protein activation, antagonist, BRET; measurement = IC50; result = 24000 nM
Compound = CNc1ncc2c(/C=C/C(=O)N3CCC(OC)CC3)nn(Cc3cccc(C(F)(F)F)c3)c2n1; target or system = CAMK2A (Homo sapiens, UniProt Q9UQM7); assay = enzyme activity, inhibitor, radiometric; setting = 1 µM; measurement = remaining activity; result = 95%
Compound = CCCCC(=O)Nc1ccc(-c2ccc3ncn(CCC)c(=O)c3c2)cn1; target or system = STK39 (Homo sapiens, UniProt Q9UEW8); assay = binding, competition with immobilised ligand; setting = 0.5 µM; measurement = remaining binding; result = 100%
Compound = COc1cccc(-c2n[nH]c(SCc3ccccn3)n2)c1OC; test system = female Sprague-Dawley rat, plasma; setting = oral, 100 mg/kg, 24 h, single dose; measurement = concentration; result = 9.2 ng/mL
Compound = O=C(NO)c1cccc(OS(=O)(=O)Oc2cccc(-c3ccccc3)c2)c1; target or system = HDAC8; assay = enzyme activity, inhibitor, fluorescence; measurement = Ki; result = 470 nM
Compound = COc1cc(-c2cncc3c2CN(C)Cc2cc(N4CCNCC4)ccc2-3)cc(OC)c1OC; target or system = TLK1 (Homo sapiens, UniProt Q9UKI8); assay = enzyme activity, inhibitor; setting = 1 µM; measurement = remaining activity; result = 90%
Compound = Cc1[nH]c(C)c(S(=O)(=O)Nc2ccc(Cl)c(Cl)c2Cl)c1C(=O)N1CCC(F)(F)C1; target or system = DRD3; assay = β-arrestin recruitment, antagonist; measurement = IC50; result = 2900 nM
Compound = Cc1cc(Oc2ncccc2CN2CCN(c3cccc(Cl)c3)CC2)ccc1-c1c(C)c(=O)[nH]c(=O)n1C; target or system = ADRA1A; assay = ligand displacement, radioligand; measurement = Ki; result = 1440 nM
Compound = O=C(NO)c1cncc(OS(=O)(=O)Oc2ccc(-n3ccnc3)cc2)c1; target or system = HDAC6 (Homo sapiens, UniProt Q9UBN7); assay = enzyme activity, inhibitor, fluorescence; measurement = IC50; result = 64 nM
Compound = Cc1[nH]c(C)c(S(=O)(=O)Nc2ccc(Cl)c(Cl)c2)c1C(=O)N1CCC(F)(F)C1; target or system = DRD3; assay = β-arrestin recruitment, antagonist; measurement = IC50; result = 5500 nM
Compound = O=C(NO)c1cc(F)cc(OS(=O)(=O)Oc2ccc(-n3ccnc3)cc2)c1; target or system = HDAC8; assay = enzyme activity, inhibitor, fluorescence; measurement = IC50; result = 706 nM
Compound = Cc1cc(Oc2ncccc2CN2CCN(c3ccccc3O)CC2)ccc1-c1c(C)c(=O)[nH]c(=O)n1C; target or system = ADRA1A; assay = ligand displacement, radioligand; measurement = Ki; result = 448 nM
Compound = Cc1cc([C@@H](C)Nc2ccccc2C(=O)O)c2nc(N3CCC(F)(F)CC3)c(C#N)c(=O)n2c1; target or system = MKNK2 (Homo sapiens, UniProt Q9HBH9); assay = binding, competition with immobilised ligand; setting = 1 µM; measurement = remaining binding; result = 100%
Compound = Cc1[nH]c(C)c(S(=O)(=O)Nc2ccc(Cl)c(C(F)(F)F)c2)c1C(=O)N1CCCC1; target or system = DRD3; assay = G protein activation, antagonist, BRET; measurement = IC50; result = 4100 nM
Compound = CN(C)c1ncnc2c1ncn2[C@@H]1O[C@H](CO)[C@@H](O)[C@H]1O; target or system = ADORA3 (Homo sapiens, UniProt P0DMS8, L264F); assay = G protein activation, agonist; measurement = EC50; result = 66500 nM
Compound = O=C(NO)c1cncc(OS(=O)(=O)Oc2ccc(C(F)(F)F)cc2)c1; target or system = HDAC8; assay = enzyme activity, inhibitor, fluorescence; measurement = IC50; result = 1200 nM
Compound = Cc1[nH]c(C)c(S(=O)(=O)Nc2ccc(C(F)(F)F)c(Cl)c2)c1C(=O)N1CCC(C#N)C1 (stereo not shown); target or system = DRD3; assay = β-arrestin recruitment, antagonist; measurement = IC50; result = 15000 nM
Compound = Cc1cc(Oc2ncccc2CN2CCN(c3ccccc3C(F)(F)F)CC2)ccc1-c1c(C)c(=O)[nH]c(=O)n1C; target or system = ADRA1A; assay = ligand displacement, radioligand; measurement = Ki; result = 1520 nM

A few entries again:
Compound = COc1cccc(-c2n[nH]c(SCc3ccccn3)n2)c1OC; test system = female Sprague-Dawley rat, plasma; setting = oral, 100 mg/kg, 24 h, single dose; measurement = concentration; result = 9.2 ng/mL
